Experimental data pooled from the literature.
A part holds a random share of what one study measured.

Sample 1
Target: Histone acetyltransferase KAT6A, winged helix 2, GST fusion (KAT6A, Homo sapiens, UniProt Q92794, residues 85-181)
Technique: protein binding microarray
Molecule type: double-stranded DNA, one strand shown
Matrix: in vitro
Tested at: not given
Notes: 8-mer, flanks averaged, mean of 2 arrays, mostly near background
Baseline: not given
Reading: higher = stronger binding
Construct (chain): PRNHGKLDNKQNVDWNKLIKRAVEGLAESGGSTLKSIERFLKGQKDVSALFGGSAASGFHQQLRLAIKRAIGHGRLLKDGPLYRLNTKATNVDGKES
`CGTGTGTA` has an E-score of -0.104.
The E-score of `ATTGGACC` is reported as -0.0504.
For `ATTACCGC`, the E-score was 0.0532.
`GAGGAAGC` gave an E-score of 0.132.
With `TCGTACGA` the E-score was -0.0355.
`ATTATGGA` gave an E-score of 0.0629.
`GACCTCTA` gave an E-score of 0.0329.
With `AGCCTTCG` the E-score was -0.0223.
With `ATCCTTTA` the E-score was -0.0368.
`GCTTATTA` gave an E-score of 0.00395.

Sample 2
Target: PABPC1L2, full length, GST fusion (mouse, UniProt A0ABA7IW68)
Technique: RNAcompete
Molecule type: RNA
Matrix: in vitro
Tested at: 20 nM
Notes: 7-mer, probes averaged, single round
Baseline: mean of 7-mers
Reading: higher = stronger binding
Construct (chain): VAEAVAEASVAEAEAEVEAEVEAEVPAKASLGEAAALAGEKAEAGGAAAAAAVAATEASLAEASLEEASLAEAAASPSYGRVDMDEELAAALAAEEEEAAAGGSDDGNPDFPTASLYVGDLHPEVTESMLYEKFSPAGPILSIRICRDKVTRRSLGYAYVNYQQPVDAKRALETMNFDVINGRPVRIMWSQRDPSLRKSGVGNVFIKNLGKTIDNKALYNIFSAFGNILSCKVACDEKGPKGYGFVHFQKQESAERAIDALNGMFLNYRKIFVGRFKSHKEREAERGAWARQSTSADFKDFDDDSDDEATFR
For `ACGGAAC`, the 7-mer Z-score was 0.213.
The 7-mer Z-score of `CCCAGCA` is reported as -0.26.
`CAGGCAU` gave a 7-mer Z-score of 0.111.
`CGCCUCU` has a 7-mer Z-score of -0.383.
`GGUGUGG` gave a 7-mer Z-score of 0.0587.
`UUCAAAA` has a 7-mer Z-score of 1.8.
With `CGGGUGA` the 7-mer Z-score was -0.021.
For `GAAGCGU`, the 7-mer Z-score was -0.253.
With `CGACAGA` the 7-mer Z-score was 0.0551.
With `CAGGGGC` the 7-mer Z-score was 0.251.
With `UCGCCAG` the 7-mer Z-score was -0.378.
`AGUGCGA` gave a 7-mer Z-score of -0.00652.

Sample 3
Target: Interferon regulatory factor 5, full length, phosphomimetic (IRF5, Homo sapiens, UniProt Q13568-2, residues 1-514, K96S/S451D/S453D/S456D/S462D)
Technique: protein-binding microarray
Molecule type: double-stranded DNA, one strand shown
Matrix: in vitro
Tested at: 250 nM
Notes: 60-bp whole probe
Added: salmon DNA 0.4 mg/ml
Baseline: random background probes
Reading: higher = stronger binding
Constant ends, left off below: GCCTAGCAC … GTCTTGATTCGCTTGACGCTGCTG
`TGAGAACTGAGTATCGATTAGTGCTAG` gave a log fluorescence of 6.5 z-score.
The log fluorescence of `GACGGAATGGGGTTTCGGGACGTGCTA` is reported as 1.56 z-score.
`TCTCTTTCCACTTGTCTTTTCGTGCTA` gave a log fluorescence of 2.37 z-score.
For `GACGAACTGGGGTAGCGAGACGTGCTA`, the log fluorescence was -0.464 z-score.
`TTAGGTTTCGGTTTTCGGTTAGTGCTA` gave a log fluorescence of 10.4 z-score.
`AACCGCACAGAACTAAAACAGTGCTAG` has a log fluorescence of 0.217 z-score.
For `GACGGTATCGATCTCGGGACGTGCTAG`, the log fluorescence was 3.93 z-score.
`GACGGACTGGATTTTCGGGACGTGCTA` gave a log fluorescence of 0.77 z-score.
`GACGGTTTCCTCATCCTGACGTGCTAG` has a log fluorescence of 0.58 z-score.

Further values, each from its own experiment
The fold induction of `PhoQ, residues 284 288 289 292 302 303 GNNTDL` is reported as 2.67 (PhoP, residues 12 14 15 18 19 STWGI (Escherichia coli, UniProt P23836); Sort-seq, refers to: YFP reporter; E. coli; PhoQ-PhoP variant library, added: 10 µM Mg2+; baseline: high Mg2+ state, higher = stronger signaling).

Excerpt of the above (sample 2):
`UUCAAAA` has a 7-mer Z-score of 1.8.
With `CGGGUGA` the 7-mer Z-score was -0.021.
For `GAAGCGU`, the 7-mer Z-score was -0.253.
